# Measurements of several laboratories.
# Every numbered part comes from another study and shows a few of its results, in no order.
# Chain of UniProt Q9H093 (whole entry, looked up): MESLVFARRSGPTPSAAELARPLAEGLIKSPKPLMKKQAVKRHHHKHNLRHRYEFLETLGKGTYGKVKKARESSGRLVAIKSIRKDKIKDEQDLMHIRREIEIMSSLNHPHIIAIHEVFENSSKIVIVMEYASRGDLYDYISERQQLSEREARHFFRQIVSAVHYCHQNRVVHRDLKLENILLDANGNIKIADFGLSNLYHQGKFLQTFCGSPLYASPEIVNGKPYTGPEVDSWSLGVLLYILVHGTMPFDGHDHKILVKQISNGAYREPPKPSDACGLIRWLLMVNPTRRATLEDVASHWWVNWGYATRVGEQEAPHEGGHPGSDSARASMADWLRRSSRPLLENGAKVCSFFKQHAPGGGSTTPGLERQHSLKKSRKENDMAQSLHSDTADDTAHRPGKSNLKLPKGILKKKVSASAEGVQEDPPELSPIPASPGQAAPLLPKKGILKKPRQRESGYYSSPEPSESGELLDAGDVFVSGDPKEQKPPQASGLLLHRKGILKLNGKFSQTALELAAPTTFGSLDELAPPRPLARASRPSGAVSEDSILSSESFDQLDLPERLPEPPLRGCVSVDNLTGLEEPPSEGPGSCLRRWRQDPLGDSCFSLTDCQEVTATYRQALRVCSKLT
# Chain of UniProt P46734 (whole entry, looked up): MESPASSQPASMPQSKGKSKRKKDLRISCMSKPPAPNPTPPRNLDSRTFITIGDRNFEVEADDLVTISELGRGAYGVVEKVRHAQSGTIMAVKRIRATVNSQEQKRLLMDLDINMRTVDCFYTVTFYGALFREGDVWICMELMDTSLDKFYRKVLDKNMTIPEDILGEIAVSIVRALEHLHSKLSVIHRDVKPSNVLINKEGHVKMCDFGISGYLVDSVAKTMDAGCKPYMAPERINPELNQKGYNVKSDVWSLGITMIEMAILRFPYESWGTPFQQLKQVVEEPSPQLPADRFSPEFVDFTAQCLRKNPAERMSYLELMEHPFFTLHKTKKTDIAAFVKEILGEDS
# Chain of UniProt Q9H3N8 (whole entry, looked up): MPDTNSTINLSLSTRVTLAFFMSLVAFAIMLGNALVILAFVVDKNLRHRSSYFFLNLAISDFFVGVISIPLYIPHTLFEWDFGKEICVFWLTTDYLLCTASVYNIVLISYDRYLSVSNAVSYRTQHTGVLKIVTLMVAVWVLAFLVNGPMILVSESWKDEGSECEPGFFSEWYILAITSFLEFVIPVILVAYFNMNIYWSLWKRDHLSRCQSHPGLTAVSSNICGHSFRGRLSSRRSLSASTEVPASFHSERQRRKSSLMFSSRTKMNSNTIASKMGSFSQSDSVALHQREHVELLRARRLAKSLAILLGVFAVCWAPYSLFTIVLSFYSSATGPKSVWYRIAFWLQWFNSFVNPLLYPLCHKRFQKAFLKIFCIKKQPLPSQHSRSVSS
# Chain of UniProt Q96RI0 (whole entry, looked up): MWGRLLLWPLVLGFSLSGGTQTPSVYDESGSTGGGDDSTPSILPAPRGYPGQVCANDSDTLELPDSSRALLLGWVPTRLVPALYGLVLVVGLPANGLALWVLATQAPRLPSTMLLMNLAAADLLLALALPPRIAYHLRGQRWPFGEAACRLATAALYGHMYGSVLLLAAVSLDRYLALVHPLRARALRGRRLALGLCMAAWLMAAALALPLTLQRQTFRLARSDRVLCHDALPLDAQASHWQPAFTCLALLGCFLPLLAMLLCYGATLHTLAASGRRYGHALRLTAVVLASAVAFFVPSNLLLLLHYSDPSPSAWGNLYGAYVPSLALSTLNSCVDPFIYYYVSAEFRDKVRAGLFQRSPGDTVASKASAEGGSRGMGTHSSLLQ
# Chain of UniProt P35367 (whole entry, looked up): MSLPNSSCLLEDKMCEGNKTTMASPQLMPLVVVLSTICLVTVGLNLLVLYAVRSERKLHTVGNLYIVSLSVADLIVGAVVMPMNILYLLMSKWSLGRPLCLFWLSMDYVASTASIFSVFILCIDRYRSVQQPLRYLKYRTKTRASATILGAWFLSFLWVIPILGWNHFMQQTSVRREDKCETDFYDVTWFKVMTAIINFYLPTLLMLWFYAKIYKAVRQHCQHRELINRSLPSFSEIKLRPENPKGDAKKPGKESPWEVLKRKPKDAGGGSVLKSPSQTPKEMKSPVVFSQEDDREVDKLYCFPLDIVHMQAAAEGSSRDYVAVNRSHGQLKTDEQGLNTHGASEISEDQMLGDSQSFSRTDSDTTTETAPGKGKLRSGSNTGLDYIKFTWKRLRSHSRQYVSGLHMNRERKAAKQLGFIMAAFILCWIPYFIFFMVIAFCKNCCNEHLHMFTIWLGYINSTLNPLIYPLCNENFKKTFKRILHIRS
# Chain of UniProt Q9BY21 (whole entry, looked up): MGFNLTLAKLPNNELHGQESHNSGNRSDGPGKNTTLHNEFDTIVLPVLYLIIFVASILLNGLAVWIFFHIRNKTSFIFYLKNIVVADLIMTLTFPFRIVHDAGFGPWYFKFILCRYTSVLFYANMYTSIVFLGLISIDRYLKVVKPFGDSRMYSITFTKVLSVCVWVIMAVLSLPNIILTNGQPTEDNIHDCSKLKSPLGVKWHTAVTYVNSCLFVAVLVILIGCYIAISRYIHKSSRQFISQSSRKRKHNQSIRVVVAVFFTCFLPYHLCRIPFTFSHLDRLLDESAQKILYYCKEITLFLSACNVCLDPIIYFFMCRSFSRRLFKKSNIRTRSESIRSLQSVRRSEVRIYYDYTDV
# Chain of UniProt O96013 (whole entry, looked up): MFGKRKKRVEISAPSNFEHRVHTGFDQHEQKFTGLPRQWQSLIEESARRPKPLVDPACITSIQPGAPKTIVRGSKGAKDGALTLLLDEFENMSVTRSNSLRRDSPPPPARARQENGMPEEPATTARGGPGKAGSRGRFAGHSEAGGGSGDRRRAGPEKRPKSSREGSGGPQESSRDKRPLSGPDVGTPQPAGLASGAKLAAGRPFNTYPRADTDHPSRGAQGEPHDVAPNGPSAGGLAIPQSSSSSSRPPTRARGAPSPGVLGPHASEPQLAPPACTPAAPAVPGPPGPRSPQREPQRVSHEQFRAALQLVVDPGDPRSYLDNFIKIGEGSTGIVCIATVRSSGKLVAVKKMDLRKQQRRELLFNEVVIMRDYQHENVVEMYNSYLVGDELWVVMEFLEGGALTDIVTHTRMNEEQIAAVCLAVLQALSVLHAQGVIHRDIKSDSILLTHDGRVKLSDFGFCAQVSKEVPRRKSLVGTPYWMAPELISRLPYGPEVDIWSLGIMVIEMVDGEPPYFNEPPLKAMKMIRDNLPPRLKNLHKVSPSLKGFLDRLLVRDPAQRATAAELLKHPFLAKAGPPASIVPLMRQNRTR
# Chain of UniProt P35590 (whole entry, looked up): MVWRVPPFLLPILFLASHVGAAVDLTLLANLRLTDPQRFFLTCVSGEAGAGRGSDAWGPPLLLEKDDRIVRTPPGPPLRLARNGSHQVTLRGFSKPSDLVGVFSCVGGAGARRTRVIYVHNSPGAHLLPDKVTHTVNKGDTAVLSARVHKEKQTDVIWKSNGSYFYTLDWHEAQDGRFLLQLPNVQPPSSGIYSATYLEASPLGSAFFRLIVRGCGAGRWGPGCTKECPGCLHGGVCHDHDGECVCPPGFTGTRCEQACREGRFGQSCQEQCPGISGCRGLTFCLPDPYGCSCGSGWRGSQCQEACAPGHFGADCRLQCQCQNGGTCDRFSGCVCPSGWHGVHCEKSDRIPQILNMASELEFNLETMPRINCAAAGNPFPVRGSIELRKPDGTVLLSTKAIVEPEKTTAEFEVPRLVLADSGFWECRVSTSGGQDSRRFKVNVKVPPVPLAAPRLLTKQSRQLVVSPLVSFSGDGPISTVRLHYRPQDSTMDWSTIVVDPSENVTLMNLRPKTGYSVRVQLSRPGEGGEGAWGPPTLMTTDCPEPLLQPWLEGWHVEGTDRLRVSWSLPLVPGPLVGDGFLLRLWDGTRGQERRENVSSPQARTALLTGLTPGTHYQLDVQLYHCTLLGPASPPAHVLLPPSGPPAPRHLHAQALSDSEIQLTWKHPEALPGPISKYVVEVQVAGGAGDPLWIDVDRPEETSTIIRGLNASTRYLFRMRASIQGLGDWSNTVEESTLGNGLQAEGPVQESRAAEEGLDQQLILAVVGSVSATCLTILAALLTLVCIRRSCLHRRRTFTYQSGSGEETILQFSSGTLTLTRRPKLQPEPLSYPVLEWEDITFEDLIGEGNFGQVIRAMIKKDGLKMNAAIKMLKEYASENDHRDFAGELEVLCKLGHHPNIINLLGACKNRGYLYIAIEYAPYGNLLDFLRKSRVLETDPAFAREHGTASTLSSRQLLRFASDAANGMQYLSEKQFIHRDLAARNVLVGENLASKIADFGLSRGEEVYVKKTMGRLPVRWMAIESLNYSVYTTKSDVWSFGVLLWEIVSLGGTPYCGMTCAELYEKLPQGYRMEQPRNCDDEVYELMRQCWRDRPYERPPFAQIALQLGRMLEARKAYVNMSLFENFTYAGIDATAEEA
# Chain of UniProt P28335 (whole entry, unmodified, looked up): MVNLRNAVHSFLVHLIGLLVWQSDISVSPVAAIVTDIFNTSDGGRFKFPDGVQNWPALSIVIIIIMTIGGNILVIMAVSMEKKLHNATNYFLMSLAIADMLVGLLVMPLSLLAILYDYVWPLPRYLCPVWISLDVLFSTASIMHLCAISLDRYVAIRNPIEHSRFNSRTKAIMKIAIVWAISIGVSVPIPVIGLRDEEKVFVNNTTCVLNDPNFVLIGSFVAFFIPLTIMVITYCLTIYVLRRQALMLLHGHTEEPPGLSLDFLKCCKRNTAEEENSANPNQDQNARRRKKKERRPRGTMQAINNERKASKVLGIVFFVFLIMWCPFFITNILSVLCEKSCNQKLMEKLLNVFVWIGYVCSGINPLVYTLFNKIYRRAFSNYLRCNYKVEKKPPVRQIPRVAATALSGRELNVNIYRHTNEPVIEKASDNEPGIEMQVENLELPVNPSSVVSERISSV

# Block 1
# SMILES: O=C(Nc1cccnn1)N1CCC(=Cc2cccc(Oc3ccc(C(F)(F)F)cn3)c2)CC1
# Effect on: cell-free assay
# Method: competition with immobilised ligand
# Concentration: 1 µM
target,remaining binding [%]
"AKT3 (Homo sapiens, UniProt Q9Y243)",100
"EPHB4 (Homo sapiens, UniProt P54760)",69
"NUAK2 (Homo sapiens, UniProt Q9H093)",88
"RET (Homo sapiens, UniProt P07949, V804L)",86
"MAP2K3 (Homo sapiens, UniProt P46734)",100
"Ribosomal protein S6 kinase alpha-1, C-terminal kinase domain (RPS6KA1, Homo sapiens, UniProt Q15418)",100
"MAP3K13 (Homo sapiens, UniProt O43283)",100
"FYN (Homo sapiens, UniProt P06241)",100
"Ribosomal protein S6 kinase alpha-5, N-terminal kinase domain (RPS6KA5, Homo sapiens, UniProt O75582)",71
"PAK4 (Homo sapiens, UniProt O96013)",77
"TIE1 (Homo sapiens, UniProt P35590)",100
"RPS6KB1 (Homo sapiens, UniProt P23443)",100
"Tyrosine-protein kinase ABL1, phosphorylated (ABL1, Homo sapiens, UniProt P00519, F317L)",94

# Block 2
# Species: human
# Matrix: microsomes or S9
# Concentration: 2 µM
# Time: 0.5 h
Compound,remaining compound [%]
Cc1nc(N2CCN(c3ccccn3)CC2)nc2c1C(=O)CC(c1cccc(Cl)c1)C2 (stereo not drawn),54.4
CC1CN(Cc2cncs2)CCN1CC(C)(C)O (stereo not drawn),94.2
Cc1oc(-c2nc(C#N)c(N(C)C)o2)cc1S(=O)(=O)N(C)c1ccccc1,92.8
Cc1ccc(S(=O)(=O)c2nc(S(C)(=O)=O)sc2NC2CCS(=O)(=O)C2)cc1 (stereo not drawn),> 99
CCOC(=O)c1ccc(Nc2nc3ccccc3n3cnnc23)cc1,82.1
CC(C(=O)N(C)C)S(=O)(=O)N1CCN(C)c2ccncc21 (stereo not drawn),> 100
CCOc1cc(=O)n2c(c1C(=O)Nc1ccc3c(c1)OCO3)CCCC2,97.7
CCOCCOC(=O)C(C)Oc1ccc(Oc2ncc(Cl)cc2Cl)cc1 (stereo not drawn),0.0908

# Block 3
# Target: Diamine acetyltransferase 1 (Homo sapiens, UniProt P21673)
# Action: inhibitor
# Concentration: 10 µM
# Relative to: control
# Residues (P21673 1-171): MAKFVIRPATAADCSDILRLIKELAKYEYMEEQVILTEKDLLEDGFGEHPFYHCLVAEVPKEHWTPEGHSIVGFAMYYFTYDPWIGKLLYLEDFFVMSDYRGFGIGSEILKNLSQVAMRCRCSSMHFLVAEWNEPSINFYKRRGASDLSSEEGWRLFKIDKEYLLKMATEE
Structure (SMILES),remaining activity [%]
CC/C=C\CC1=C(C)CCC1=O,96.6
C[C@@H]1O[C@@H](O[C@@H]2[C@@H](O)[C@H](O)[C@@H](CO)O[C@H]2c2c(O)cc(O)c3c(=O)cc(-c4ccc(O)cc4)oc23)[C@H](O)[C@H](O)[C@H]1O,103
CC1=CCC(O)(C(C)C)CC1 (stereo not drawn),100
CCC(=O)c1ccccc1O,96
O=C(O)c1ccccc1,93.8
CC(=O)c1ccc(O)cc1O,86.2
CC(C)=CCc1cc([C@@H]2CC(=O)c3ccc(O)c(CC=C(C)C)c3O2)ccc1O,123
Cc1cccc(C(=O)O)c1O,101

# Block 4
# SMILES: CC(C)CN(C)c1nc(N)c(C(=O)N=C(N)N)nc1Cl
# Effect on: β-arrestin recruitment
# Action: agonist
# Method: PRESTO-Tango
# Concentration: 10 µM
# Relative to: untreated
target,fold over basal
"HTR2C (Homo sapiens, UniProt P28335, I156V/I160V)",0.45
"HRH1 (Homo sapiens, UniProt P35367)",1.25 fold
"HRH4 (Homo sapiens, UniProt Q9H3N8)",0.77 fold
"Trace amine-associated receptor 8 (TAAR8, Homo sapiens, UniProt Q969N4)",0.65 fold
"G-protein coupled receptor 87 (GPR87, Homo sapiens, UniProt Q9BY21)",1.21
"OXER1 (Homo sapiens, UniProt Q8TDS5)",0.58
"F2RL3 (Homo sapiens, UniProt Q96RI0)",0.47 fold

# For quick reference, copied from above (block 2):
Compound,remaining compound [%]
Cc1ccc(S(=O)(=O)c2nc(S(C)(=O)=O)sc2NC2CCS(=O)(=O)C2)cc1 (stereo not drawn),> 99
CCOC(=O)c1ccc(Nc2nc3ccccc3n3cnnc23)cc1,82.1
CC(C(=O)N(C)C)S(=O)(=O)N1CCN(C)c2ccncc21 (stereo not drawn),> 100
